Assay results of several laboratories.
Numbered parts are unrelated; each lists some results of a single study.

Sample 1
Target: Interferon regulatory factor 7, full length, phosphomimetic (IRF7, Homo sapiens, UniProt Q92985, residues 1-503, S471D/S472D/S475D/S476D/S477D/S483D/S484D/S487D)
Chain of UniProt Q92985 (whole entry, unmodified, looked up): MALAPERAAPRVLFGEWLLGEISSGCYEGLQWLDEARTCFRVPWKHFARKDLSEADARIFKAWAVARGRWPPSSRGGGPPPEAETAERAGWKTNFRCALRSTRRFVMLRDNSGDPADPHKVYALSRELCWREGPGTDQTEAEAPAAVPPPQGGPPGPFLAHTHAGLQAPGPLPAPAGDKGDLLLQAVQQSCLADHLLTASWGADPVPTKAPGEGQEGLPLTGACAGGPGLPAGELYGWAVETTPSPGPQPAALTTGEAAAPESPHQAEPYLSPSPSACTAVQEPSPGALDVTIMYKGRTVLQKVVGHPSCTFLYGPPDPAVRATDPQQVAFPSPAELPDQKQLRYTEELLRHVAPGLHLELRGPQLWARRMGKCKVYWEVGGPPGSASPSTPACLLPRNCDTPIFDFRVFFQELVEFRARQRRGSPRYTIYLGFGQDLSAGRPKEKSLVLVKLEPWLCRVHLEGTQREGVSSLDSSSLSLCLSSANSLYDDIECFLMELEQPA
Method: protein-binding microarray
Form: double-stranded DNA, one strand shown
Sample: in vitro
Concentration: 2200 nM top
Setting: 60-bp whole probe
Added: salmon DNA 0.4 mg/ml
Baseline: random background probes
Reading: higher = stronger binding
Shared flanks, not repeated: GCCTAGCAC … GTCTTGATTCGCTTGACGCTGCTG
Strand | fitted relative affinity
GACGATTTCCTTCTCCTGACGTGCTAG | 2.17 z-score
GACGGACTGCTTATCATGACGTGCTAG | 0.119 z-score
TCAATTCTCAACCCTGGTACTGTGCTA | 0.761 z-score
CCATACTTCCCACTGGTCTTGTGCTAG | 1.61 z-score
GACGGTATCGGCTTTCGGGACGTGCTA | 1.39 z-score
TCAAAGCAAAAATGATTACTGTGCTAG | -0.408 z-score
TTAGAACTGGGGTATGGATTAGTGCTA | -0.0396 z-score
TCAGATTTTGTCCTCCCACTGTGCTAG | 1.27 z-score
TCATCTTTCACTGCTCCAACTGTGCTA | 2.34 z-score

Sample 2
Molecule: PhoQ, residues 284 288 289 292 302 303 TYGVAM
Method: Sort-seq
Measured: YFP reporter
Sample: E. coli
Setting: PhoQ-PhoP variant library
Added: 10 µM Mg2+
Baseline: high Mg2+ state
Reading: higher = stronger signaling
target | fold induction
PhoP, residues 12 14 15 18 19 SHWTV (Escherichia coli, UniProt P23836) | 1.25
PhoP, residues 12 14 15 18 19 STHWV (Escherichia coli, UniProt P23836) | 11.7
PhoP, residues 12 14 15 18 19 QYCSL (Escherichia coli, UniProt P23836) | 1.74

Sample 3
Target: Sal-like protein 4, full length isoform B (SALL4, Homo sapiens, UniProt Q9UJQ4-2, residues 1-616)
Method: universal PBM
Form: double-stranded DNA, one strand shown
Sample: in vitro
Concentration: not given
Setting: 8-mer, flanks averaged, mean of replicates
Reading: higher = stronger binding
Strand | E-score
CCATCACA | -0.0272
AGTATTGC | 0.105
CCCCCTCG | -0.216
TGAATGAA | 0.233
AAACGTAC | 0.137
ACAGGGCC | -0.238
AATGAAGC | 0.0997
ATTGCTTA | 0.266
CCACTTTA | 0.0772
ACAAATTG | 0.131
GCGTAGCC | -0.272
GCTCACGA | -0.2

Sample 4
Target: RNA binding protein fox-1 homolog 2, RRM domain, GST-SBP tag (RBFOX2, Homo sapiens, UniProt O43251-10, residues 100-194)
Method: RNA Bind-n-Seq
Form: RNA
Sample: in vitro
Concentration: 365 nM
Setting: natural RNA segment, single round, ends assumed
Baseline: no-protein control
Reading: higher = stronger binding
Shared flanks, not repeated: GGGAGUUCUACAGUCCGACGAUC … UGGAAUUCUCGGGUGCCAA
Residues (chain): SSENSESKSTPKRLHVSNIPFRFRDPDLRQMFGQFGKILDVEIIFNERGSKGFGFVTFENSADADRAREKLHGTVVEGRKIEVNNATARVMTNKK
Strand | RBNS enrichment (R)
GUGGGUGGGAUCUGGGGGAGGUAGAUUUUCCUCAUCUCUCUUCCUGCCUCCCUCCCAUCUCCUGAUCCACAUAGAUGGAAUAGAAAGCAGCCUUUGUUGCUGUAGAUGUG | 0.493
GGUGUGGUGGCACACGCCUGUAGUCCCAGCUACUGGGGAGGCUGAGGCAGCAUUGCUUGAACCCAGGAGGUGGAGGUUGCAGUGAGCCAAGAUCACACCACUGCACUCCA | 1.21
UUCAUGCCCCAAGCCUCAGCUAUUGGAAUGGCUUCCAUUCAGUAGCUUCUGUGUUGGUCCUUUGUAGAGAUGGAAGUGGAGCCAUCCUGCUGUGAACAGUUAUGAACCAG | 0.244
AUGUUCCCAAAUUCAGCAGUAACGUCCACAUGGGACCUUUUCACGUGACUCUGUGGGGCUUCUUUCUCCUUUUCACUUUCCCCUUUAACCCAUGUCUGACUUAGUGCUGC | 0.423
AGGGUUUUAAGGGACACCAGUGGAGGUGUGGCUGAAUCUUCAUGUAUUGUUUGGCUUUCUGAGGGAUGUUAGUGCCAAACUUGUAUAGGAGUGGGGUGCUGUCUUCCACU | 0.413
GAGGCCUCUUCCAAUGUUAGUCUUUUCUAAGGUAAUUUUUAGUAGGUCAUAAUUCAGUAUAUACUAGCCUACUCAUCUCUGAAGACUGACUUUGCUCGUAAUUUUUUUUU | 0.614
CUUGCCUCUGUGCUGUGUGUGACGUGACCGGACUUUUCUGCAAACACCAACAUGUUGGGAAACUUGGCUCGAAUCUCUGUGCCUUCGUCUUUCCCAUGGGGAGGGAUUCU | 0.345
CACCUCUGCCUGACCCCAGCCUUAAACAUAGCCCCUGGCCAGAGGCCUUGCUGGGUGGAGCCUCUGUGUGACUCCAUACUCCUCCCACCACAACACUCAUCUGUCAAACA | 0.69
